Measurements collected from several papers.
Parts stem from different laboratories: compare values within a part only.

Set 1
Target: PABPC1L2, full length, GST fusion (mouse, UniProt A0ABA7IW68)
Method: RNAcompete
Form: RNA
Matrix: in vitro
Concentration: 20 nM
Notes: 7-mer, probes averaged, single round
Relative to: mean of 7-mers
Reading: higher = stronger binding
Measurement: 7-mer Z-score
Target sequence (chain): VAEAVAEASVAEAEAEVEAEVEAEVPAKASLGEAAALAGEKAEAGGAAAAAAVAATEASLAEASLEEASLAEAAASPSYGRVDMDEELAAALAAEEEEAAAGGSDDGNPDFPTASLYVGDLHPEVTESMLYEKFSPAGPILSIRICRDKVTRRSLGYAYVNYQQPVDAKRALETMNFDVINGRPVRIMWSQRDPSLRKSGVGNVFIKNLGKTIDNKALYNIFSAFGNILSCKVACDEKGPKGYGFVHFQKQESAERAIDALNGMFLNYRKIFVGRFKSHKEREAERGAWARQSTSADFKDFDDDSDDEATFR
Strand = UAUGCCU; value = -0.282
Strand = CAGAUUG; value = -0.142
Strand = GAGAUCA; value = -0.18
Strand = AUGCUGU; value = -0.345
Strand = GACGAGG; value = 0.0424
Strand = UCUAUAU; value = -0.182
Strand = CAGCGGG; value = 0.231
Strand = UAGCGAA; value = -0.0464
Strand = UUUACGA; value = 0.0877
Strand = UCUCUGU; value = -0.353
Strand = AUCCCAA; value = -0.151
Strand = AUCCCGA; value = -0.119
Strand = CACCUCU; value = -0.354
Strand = CCAGUCC; value = -0.233
Strand = AUAGUUU; value = -0.316
Strand = GAUGACA; value = -0.157

Set 2
Target: RING finger protein unkempt homolog, zinc fingers 1-6, GST-SBP tag (UNK, Homo sapiens, UniProt Q9C0B0, residues 30-357)
Chain of UniProt Q9C0B0 (30-357, looked up): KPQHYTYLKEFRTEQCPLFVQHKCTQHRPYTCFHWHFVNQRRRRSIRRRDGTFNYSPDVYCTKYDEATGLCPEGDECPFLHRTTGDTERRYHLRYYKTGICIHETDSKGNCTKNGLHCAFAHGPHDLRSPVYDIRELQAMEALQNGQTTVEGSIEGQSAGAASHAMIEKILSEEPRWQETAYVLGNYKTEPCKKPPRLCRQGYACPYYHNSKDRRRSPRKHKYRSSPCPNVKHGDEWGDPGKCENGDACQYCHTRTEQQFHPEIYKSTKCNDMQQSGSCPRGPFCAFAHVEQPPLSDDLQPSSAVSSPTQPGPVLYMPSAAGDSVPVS
Method: RNA Bind-n-Seq
Form: RNA
Matrix: in vitro
Concentration: not given
Notes: RNA with constant flanks, human and mouse sites, ends assumed
Relative to: input RNA pool
Reading: higher = stronger binding
Measurement: bound/input enrichment
Shared flanks, not repeated: GGGAGUUCUACAGUCCGACGAUC … CAACAGAGGAUUGAGCAUCA
Strand = GUGUCAAGAGAUUACAAGGCUCUAAGGGAUGGAAAUAAACUGGCACAGAUGGAAGAAGCUCCACUUUUCCCAGGAGAAUCAAUUAAGGCCAUUGUGAAAGACGUCAUUUAUAUCUGUCCA; value = 0.116 ratio
Strand = UCCAAUUCAAACUAUAGUACUGUGUAAUUAUGUAUAAAGGUUUUUUUAUUUAUUUGAAAUUAGGUUAGAUAUACAUUUUUAAAUUUAACAUCUGGCUGGACAGUGUUCUAUUAACUCAUU; value = 42.8 ratio
Strand = CAAUACAAAUCACUAAUUUUGGACUCCCUUCCUGGAGUGUGUGUGUGUGUGUGUGUGUGUGUGUGUGUGUGUGUGUGUGUGUGUGUGUGUGUAAAUGAGAAUGAGAUUUGUACACACCCA; value = 0.434 ratio
Strand = UCAUUGCCCUCAACAUGAAGACUGCCAUAUUCCAAGUCACAUUAUUUUACCAAUGGAAUUAUAGAAUUAACAGUAUUUUAAAUUACGUUUAUAACACUGCAGAGACCUUAAGUGCUAAAC; value = 1.47 ratio
Strand = AAAGAAAAUCCAGUUAUGGCAGAACCCCCAGUUAUAAAUGAGGAGUGCAGUUUGAAAUGCUGCUCUUCUGAUACCAAAGGCUCUCCUUUGGCCAGCAUUUCUAAAAGUGGGAAAGUGGAU; value = 0.125 ratio
Strand = CUCCUGCCGGGCGCCCGGCAGACCGAAGCGGCUCCAGUGUGCUGCUCUGCUCGGUACAACUUAGCGAUUUUGGCGUUCUGUGGUUUCUUCGUUCUCUAUGCCUUACGGGUGAACCUGAGU; value = 0.154 ratio
Strand = UGCCCGGGGCCACGCUACGAGCUGCGGGACUGCUGCUGGGUGCUGUGCGCGCUGCUCGUGUUCUUCUCCGACGGCGCCACCGACCUGUGGCUGGCGGCCUCCUACUACCUGCAGGGUCAG; value = 0.17 ratio
Strand = GCUGAAGGAAAUGACCAACCACCAGAAGAAACGAGCAGCUGAAAUGAUGGCAUCAUUAUUAAAAGACCUUGCAGAAAUAGGAAUUGCUGUGGGGAAUAACGAUGUGAAGCAACCAGAAGG; value = 0.268 ratio

Set 3
Target: RNA binding protein fox-1 homolog 2, RRM domain, GST-SBP tag (RBFOX2, Homo sapiens, UniProt O43251-10, residues 100-194)
Method: RNA Bind-n-Seq
Form: RNA
Matrix: in vitro
Concentration: 365 nM
Notes: natural RNA segment, single round, ends assumed
Relative to: no-protein control
Reading: higher = stronger binding
Measurement: RBNS enrichment (R)
Shared flanks, not repeated: GGGAGUUCUACAGUCCGACGAUC … UGGAAUUCUCGGGUGCCAA
Construct (chain): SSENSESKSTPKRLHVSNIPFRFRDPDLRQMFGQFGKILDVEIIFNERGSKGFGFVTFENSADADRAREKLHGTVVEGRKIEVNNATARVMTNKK
Strand = GGAAAUGAUACACUACUGGCUUAAGUGAUGACUCUUUCAGAUUUUCAGUAUUUUAUACAACUACUGCCACAUCCUUAUACUUUAUUGCUUUUCUGUCUUCUUCAACCUGG; value = 0.336
Strand = GCCUUUUCAGCAGCGAUGGUCUCAGUGUGCUUGGGGCAGGAGUACAUAGUUUCUAUGAGCGAUAUAAAGAGUUCCUGUUUCCCUUCACUGGGCCUAAGCCUUUCUGCAUU; value = 0.475
Strand = CACAGAGGCCCAGCCCCAGCAUCACCUCCAGGACCCCAGCUGCUCUAAGUCCAGGACCUCUACCCUGAGGACUCAGCCCUUAGCUCUGGAGAAGGAACAUAUUUGAUAGA; value = 0.282
Strand = GGGUUUUUUGCGUCCUUUUGGAAUCACAGAAAUAAACAAGUAGGUUUCAGUUGUCUUCAGAGACAAAUGUUACUUAAUCAGGAAUACAAAGUACAGAUUUUUUACAUUUU; value = 0.474
Strand = GGUGUCCUAAGGUUAAGGCGGUGCGCCUUGUCAUGUGCUCCUUGUACCAUGCCAUCUGUGCCAGUGUGUGUCUGCCUCACCCUGUGCUUGACAUGUUCACCCAUCUUCUC; value = 2.02
Strand = CUCAUUUUUCUCCCCUGCUCCUAAAACCCAAAAUCUUCUAAAGAAUUCUAGAAGGUAUGCGAUCAAACUUUUUAAAGAAAGAAAAUACUUUUUGACUCAUGGUUUAAAGG; value = 0.669
Strand = AGGAUGGAGAGGACUUGGUGGAUUUUUGUUUCUUGCCUGACCUCAGUUUCAUGAAAGAAAGUGGAAGCUACAGAAUUAUUUUCUAAAAUAAAGGCUGAAUUGUCUGAAAA; value = 0.535
Strand = GGAAUGAGGCUGUUGGGGUGUCCUAACCCAGGUCCUUGUGCUUCACUGACAGUUUGCUCACAGGUUAUGUUUGAAUGUCUUAUGGAAGCAGACGUUAUUUUCCGUGAUUC; value = 2.06

Set 4
Target: Transcription factor Sp1 (SP1, Homo sapiens, UniProt P08047, residues 1-785, full length assumed)
Chain of UniProt P08047 (whole entry, looked up): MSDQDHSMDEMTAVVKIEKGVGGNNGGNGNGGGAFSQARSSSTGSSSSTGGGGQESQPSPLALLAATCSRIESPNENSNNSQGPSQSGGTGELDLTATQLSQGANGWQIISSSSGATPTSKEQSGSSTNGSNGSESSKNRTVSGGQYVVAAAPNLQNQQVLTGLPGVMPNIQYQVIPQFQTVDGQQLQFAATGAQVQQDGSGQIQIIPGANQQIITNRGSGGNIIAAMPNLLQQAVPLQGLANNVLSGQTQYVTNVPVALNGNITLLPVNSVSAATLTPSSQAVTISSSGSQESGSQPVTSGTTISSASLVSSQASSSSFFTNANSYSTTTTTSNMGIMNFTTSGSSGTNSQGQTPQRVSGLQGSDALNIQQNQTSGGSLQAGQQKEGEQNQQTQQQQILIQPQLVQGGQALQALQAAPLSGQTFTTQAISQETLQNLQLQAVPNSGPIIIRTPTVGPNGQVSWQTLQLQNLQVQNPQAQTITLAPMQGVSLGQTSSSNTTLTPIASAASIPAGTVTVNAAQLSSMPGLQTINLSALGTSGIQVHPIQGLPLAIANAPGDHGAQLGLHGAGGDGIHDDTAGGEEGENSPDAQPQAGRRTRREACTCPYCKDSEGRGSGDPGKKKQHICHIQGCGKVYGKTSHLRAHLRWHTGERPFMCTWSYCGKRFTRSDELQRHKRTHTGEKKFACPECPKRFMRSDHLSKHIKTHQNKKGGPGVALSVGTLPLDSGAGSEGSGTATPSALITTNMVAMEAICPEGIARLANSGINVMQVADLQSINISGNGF
Method: protein-binding microarray
Form: double-stranded DNA, one strand shown
Matrix: in vitro
Concentration: not given
Notes: k-mer, scored over probes, only values ≥0.25
Reading: higher = stronger binding
Measurement: E-score
Strand = GTACTACA; value = 0.28
Strand = GAGGGGCA; value = 0.315
Strand = ATGCATCA; value = 0.296
Strand = ATGCATTA; value = 0.281
Strand = CACACCCC; value = 0.408
Strand = ACATATAT; value = 0.262
Strand = CCTGCCCC; value = 0.297
Strand = CCGCCCAG; value = 0.302
Strand = GCCCACCA; value = 0.251
Strand = ACTAGTAT; value = 0.282
Strand = AACCCGCC; value = 0.264
Strand = CCAACCCC; value = 0.4
Strand = GTATACAC; value = 0.281
Strand = GAGGGGTA; value = 0.323
Strand = AGTGGGCG; value = 0.45
Strand = AACATGTG; value = 0.27
Strand = TGTATACA; value = 0.346
Strand = GCCCCTCC; value = 0.488
Strand = CACCTCCC; value = 0.267
Strand = CCTCCTCC; value = 0.36
Strand = GGGGAGGA; value = 0.442
Strand = CCCATCCC; value = 0.372
Strand = CCAGCCCC; value = 0.274
Strand = CACGTGGG; value = 0.26
Strand = ATAAGGGG; value = 0.303

Some of these lines once more (set 4):
Strand = GAGGGGTA; value = 0.323
Strand = GTACTACA; value = 0.28
Strand = ATAAGGGG; value = 0.303
Strand = ACATATAT; value = 0.262
Strand = ATGCATCA; value = 0.296
